Published values from different studies.
Every numbered part comes from another study and shows a few of its results, in no order. Substitutions count along the parent as printed.

Block 1
Target: Sal-like protein 4, full length isoform A (SALL4, Homo sapiens, UniProt Q9UJQ4, residues 1-1053)
UniProt Q9UJQ4, sequence (whole entry, looked up): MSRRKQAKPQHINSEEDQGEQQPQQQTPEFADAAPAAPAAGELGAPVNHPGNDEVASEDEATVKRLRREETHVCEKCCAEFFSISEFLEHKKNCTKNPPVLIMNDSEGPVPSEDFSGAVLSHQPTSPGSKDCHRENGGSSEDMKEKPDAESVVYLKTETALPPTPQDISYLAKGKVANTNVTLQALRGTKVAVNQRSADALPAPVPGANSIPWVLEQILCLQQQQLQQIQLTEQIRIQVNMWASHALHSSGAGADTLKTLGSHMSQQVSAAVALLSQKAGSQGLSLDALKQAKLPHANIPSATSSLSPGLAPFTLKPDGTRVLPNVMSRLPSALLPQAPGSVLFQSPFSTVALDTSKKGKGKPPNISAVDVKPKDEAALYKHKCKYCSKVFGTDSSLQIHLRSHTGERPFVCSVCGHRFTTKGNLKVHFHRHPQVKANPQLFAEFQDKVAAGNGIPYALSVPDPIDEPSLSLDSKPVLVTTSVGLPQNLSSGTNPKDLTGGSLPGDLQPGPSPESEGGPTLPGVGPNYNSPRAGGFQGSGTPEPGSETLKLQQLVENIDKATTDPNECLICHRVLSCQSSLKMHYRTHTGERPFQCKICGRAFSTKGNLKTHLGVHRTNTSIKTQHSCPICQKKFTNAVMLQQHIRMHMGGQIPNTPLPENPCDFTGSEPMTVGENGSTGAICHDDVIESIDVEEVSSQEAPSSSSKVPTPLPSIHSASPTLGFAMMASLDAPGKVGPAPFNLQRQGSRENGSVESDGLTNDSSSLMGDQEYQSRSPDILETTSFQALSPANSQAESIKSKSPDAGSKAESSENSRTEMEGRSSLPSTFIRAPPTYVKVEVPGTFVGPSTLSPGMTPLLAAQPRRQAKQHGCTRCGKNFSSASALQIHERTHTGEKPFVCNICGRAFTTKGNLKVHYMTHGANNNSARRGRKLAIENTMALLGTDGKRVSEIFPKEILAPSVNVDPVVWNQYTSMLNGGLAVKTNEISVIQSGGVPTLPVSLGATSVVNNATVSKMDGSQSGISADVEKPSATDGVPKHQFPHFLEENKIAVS
Method: universal PBM
Molecule type: double-stranded DNA, one strand shown
Matrix: in vitro
Concentration: 600 nM
Notes: 8-mer, flanks averaged, mean of replicates
Direction: higher = stronger binding
Endpoint: E-score
AGGCTGCA: -0.0412
AGAGCGTA: -0.0822
CTTCGGAA: 0.0127
CGCAAACC: -0.113
CTTACGGA: -0.101
CAACATTA: 0.307
GCGCCGAC: -0.223
AGGTGTTG: -0.0311
GCCATGCC: -0.164
AATTGCGA: 0.147
GTAACAGA: 0.15
AAAGCGTG: -0.0991
CAATTGTG: 0.106
CGTATCTA: 0.103
CGAGGGTA: -0.142
AGACTCGA: -0.0373
AACTAATC: 0.17
AACATGGC: -0.0766
AAGCGAAC: -0.122

Block 2
Target: Histone acetyltransferase KAT6A, winged helix 2, GST fusion (KAT6A, Homo sapiens, UniProt Q92794, residues 85-181)
Method: protein binding microarray
Molecule type: double-stranded DNA, one strand shown
Matrix: in vitro
Concentration: not given
Notes: 8-mer, flanks averaged, mean of 2 arrays, mostly near background
Baseline: not given
Direction: higher = stronger binding
Endpoint: E-score
Construct (chain): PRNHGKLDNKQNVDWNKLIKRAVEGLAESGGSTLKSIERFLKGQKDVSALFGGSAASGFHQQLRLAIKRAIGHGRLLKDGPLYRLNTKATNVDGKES
CCATAATC: -0.0121
ATCCGCAT: 0.0979
CACAAGAA: 0.0899
CCTTATAG: 0.0137
AATTGAGC: -0.0965
TCAATGGA: -0.136
GTGATTGA: -0.029
CCACTAAA: 0.0624
CCAGTTAC: -0.248
TCGCGCGA: 0.0502
AAGTGTGA: -0.27
AATTCCCC: 0.0139
GAGATCGA: 0.0591
CCGACAGC: 0.0546
TGATTCAA: -0.00136
CAGGGGGC: 0.256
CCCGTGCA: -0.0205
TATGTGAA: -0.0428
GAAAATGA: -0.0541
CATCCTAC: -0.0491
CTCCGGAC: -0.0277
ATAGGGTC: -0.0972
CCCCTAGC: -0.0436
ATTAGTCG: 0.0711
GGTAATTA: -0.0839

Block 3
Target: FOSL1, bZIP domain (human)
Method: DHFR protein complementation
Matrix: yeast
Notes: single substitutions, most at no-binding floor
Baseline: wild-type JUN-FOS pair
Direction: higher = stronger binding
Endpoint: binding fitness
Starting sequence: JUN, bZIP domain (human); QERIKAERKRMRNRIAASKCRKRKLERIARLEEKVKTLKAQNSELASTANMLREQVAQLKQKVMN; partner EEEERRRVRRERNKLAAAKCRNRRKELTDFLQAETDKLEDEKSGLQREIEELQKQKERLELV
K36N: -0.473 natural log
L52R: -1.39 natural log
V56H: -1.54 natural log
T37E: -0.271 natural log
Q58P: -1.34 natural log
K36L: -0.484 natural log
I28G: -0.938 natural log
E54C: -0.831 natural log
E44A: -0.399 natural log
K36C: -0.412 natural log
A40M: -0.574 natural log
E33I: -0.812 natural log
I28W: -0.61 natural log
A29F: -0.602 natural log
S43N: -0.385 natural log
N42T: -0.524 natural log
Q41V: -0.511 natural log
K34Y: -0.489 natural log

Block 4
Target: ABI1, truncated, D143A, DHFR fusion (Arabidopsis thaliana)
Method: DHFR PCA, deep sequencing
Matrix: yeast
Notes: methotrexate growth selection, single substitutions
With: (+)-ABA 2500 µM
Baseline: wild-type fitted maximum
Direction: higher = stronger binding
Endpoint: relative binding score
Starting sequence: PYL1, truncated, DHFR fusion (Arabidopsis thaliana); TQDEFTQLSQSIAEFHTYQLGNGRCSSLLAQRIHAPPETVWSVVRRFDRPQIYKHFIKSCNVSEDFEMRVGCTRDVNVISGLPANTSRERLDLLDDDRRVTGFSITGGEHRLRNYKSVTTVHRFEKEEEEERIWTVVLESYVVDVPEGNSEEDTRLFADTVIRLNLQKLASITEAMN; partner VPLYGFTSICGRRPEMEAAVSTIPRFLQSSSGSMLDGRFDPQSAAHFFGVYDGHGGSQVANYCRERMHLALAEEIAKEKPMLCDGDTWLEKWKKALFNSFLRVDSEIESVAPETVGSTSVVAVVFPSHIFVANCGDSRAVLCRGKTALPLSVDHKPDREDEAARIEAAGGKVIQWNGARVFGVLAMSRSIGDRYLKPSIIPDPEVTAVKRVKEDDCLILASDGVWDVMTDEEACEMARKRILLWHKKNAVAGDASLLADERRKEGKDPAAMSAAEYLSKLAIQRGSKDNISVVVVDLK
V78T: 94.7%
R163G: 88.1%
E67K: 95.1%
V70Y: 84.8%
P146R: 63%
Q2N: 98.6%
A170F: 45.1%
P146S: 87.9%
C60N: 67.4%
V40E: 20.8%
R69V: 93.4%
R46C: 98.5%

Block 5
Target: PABPC1L2, full length, GST fusion (mouse, UniProt A0ABA7IW68)
Method: RNAcompete
Molecule type: RNA
Matrix: in vitro
Concentration: 20 nM
Notes: 7-mer, probes averaged, single round
Baseline: mean of 7-mers
Direction: higher = stronger binding
Endpoint: 7-mer Z-score
Residues (chain): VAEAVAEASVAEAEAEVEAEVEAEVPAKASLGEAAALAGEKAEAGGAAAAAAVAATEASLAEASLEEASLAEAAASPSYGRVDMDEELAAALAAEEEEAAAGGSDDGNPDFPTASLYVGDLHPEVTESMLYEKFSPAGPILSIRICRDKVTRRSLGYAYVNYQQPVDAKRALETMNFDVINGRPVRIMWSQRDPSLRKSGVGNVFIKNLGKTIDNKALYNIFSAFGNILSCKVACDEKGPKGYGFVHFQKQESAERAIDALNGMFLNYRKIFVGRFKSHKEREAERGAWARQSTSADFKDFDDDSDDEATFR
GGAAAAG: 2.05
CGAUGGG: 0.119
ACGGUCU: -0.228
CAGGGAC: 0.418
GGAACUC: -0.121
UAUAUCC: -0.427
GGAAACC: -0.153
AAUCAAU: 0.186
UAUCUUC: -0.287
GUGAGAU: -0.2
GUAAAUA: 1.02
AGAGGUA: 0.0551
AUGAGCA: -0.0264
CCGGAGU: -0.0228
CACGUUG: -0.204
CUCCCAU: -0.338
UCUGACG: -0.349
GCAGCAC: -0.0826
ACCGAGU: -0.18
AUCGGCU: 0.0152
CGCUCAU: -0.3
ACUGGCC: -0.175
AAACGGU: 0.604
AUUGACA: -0.11

Block 6
Target: CCNA1, cyclin fold, Cln2 fusion (human)
Method: yeast growth competition, sequencing
Matrix: yeast
Notes: weak parent motif
Baseline: not given
Direction: higher = stronger binding
Endpoint: normalised enrichment score
Starting sequence: RBL1 docking peptide (human); GSAKRRLFGEDPP
GSLKRRLFGEDPP [A3L]: 0.45
GSAKRPLFGEDPP [R6P]: 0.00737
GSAKRRLFGEDSP [P12S]: 0.688
GSAKRRLFGEDRP [P12R]: 0.665
GSAKRRLFGEDPC [P13C]: 0.384
GSAFRRLFGEDPP [K4F]: 0.47
GSAKKRLFGEDPP [R5K]: 0.435
GSAKRRSFGEDPP [L7S]: 0.194
GGAKRRLFGEDPP [S2G]: 0.583
GSAYRRLFGEDPP [K4Y]: 0.578
GSIKRRLFGEDPP [A3I]: 0.188
GSAKRRLFIEDPP [G9I]: 0.572
GSAKRRLAGEDPP [F8A]: 0.231
GSQKRRLFGEDPP [A3Q]: 0.191
GSAKRRLFGEDPV [P13V]: 0.741
FSAKRRLFGEDPP [G1F]: 0.921
GSAKRRLTGEDPP [F8T]: 0.225
GSAKRRLFGKDPP [E10K]: 0.383
GSAKRRLFGEHPP [D11H]: 0.245
GSAKRRLFGEDPG [P13G]: 0.454
GSAKRRLWGEDPP [F8W]: 0.207
GSAKRRLFGFDPP [E10F]: 0.517

A few entries again (block 3):
N42T: -0.524 natural log
E44A: -0.399 natural log
I28G: -0.938 natural log
V56H: -1.54 natural log
Q41V: -0.511 natural log
K36N: -0.473 natural log
T37E: -0.271 natural log
